Results collected from several papers.
Compare with care: the assays were run in different laboratories. ± gives the spread as reported.

| Compound | test | test system | conditions | quantity | value |
| --- | --- | --- | --- | --- | --- |
| COc1cc2c(cc1OC)CN(CCCCn1ccc3cc(OCC[18F])ccc31)C2 |  | male ICR mice | intravenous, 280 kBq, 2 min post-injection | blood uptake | 2.77 ± 0.1 %ID/g |
| C[C@]12CC[C@@H]3c4ccc(OCC(=O)N[C@@H](CCCCNC(=O)CN5CCN(CC(=O)[O-])CCN(CC(=O)[O-])CCN(CC(=O)[O-])CC5)C(=O)O)cc4CC[C@H]3[C@@H]1CCC2=O.[68Ga+3] |  | female Balb/c mice | dose not given, 2.5 h | blood radioactivity | < 0.5 %IA/g |
| O=C([O][Ti+2][O]C(=O)c1ccc(P(c2ccccc2)c2ccccc2)cc1)c1ccc(P(c2ccccc2)c2ccccc2)cc1.[Cl][Au].[Cl][Au].c1cc[cH-]c1.c1cc[cH-]c1 | ICP-MS, measured: gold | NOD.CB17-Prkdc scid/J mice, blood | 7.5 mg/kg, 24 h after first dose | blood concentration | 5.5 µg/mL |
| CCC(=O)N1CCC(NC(=O)Nc2ccc(OC(F)(F)F)cc2)CC1 |  | C57BL/6J mice, male, wild type, blood | subcutaneous, 0.3 mg/kg, 14 days after dosing | blood concentration | > 2.5 nM |
| COCCOCCOCCOCCOCCOCCOCCOCCOCCOCCOCCOCCOCCOCCOCCOCCOCCOCCOCCOCCOCCOCCNC(=O)CCC1(Cc2ccccc2)c2ccccc2-c2ccc(-c3sc(-c4c5c(c(-c6sc(-c7ccc8c(c7)C(CCC(=O)NCCOCCOCCOCCOCCOCCOCCOCCOCCOCCOCCOCCOCCOCCOCCOCCOCCOCCOCCOCCOCCOCCOC)(Cc7ccccc7)c7ccccc7-8)c7c6OCCO7)c6nsnc46)N=S=N5)c4c3OCCO4)cc21 (stereo not drawn) | NIR-II fluorescence | KM mice, female, whole blood | intravenous, 15 mg/kg | blood half-life | 179 min |
| CCNC(=O)OCc1c(COC(=O)NCC)c(-c2ccc(OC)cc2)n2c1Cc1ccccc1-2 |  | BALB/c nude mice, blood | day 10 | blood glucose | 145 ± 19 mg/dL |
| Cn1cc2cc1C(=O)NC[C@H](N)CC(=O)Nc1cc(n(C)c1)C(=O)Nc1cc(n(C)c1)C(=O)Nc1cc(n(C)c1)C(=O)Nc1cc(n(C)c1)C(=O)NC[C@H](N)CC(=O)Nc1cn(C)c(n1)C(=O)Nc1cn(C)c(n1)C(=O)Nc1cc(n(C)c1)C(=O)N2 |  | C57BL/6 mice, blood | intraperitoneal, 120 nmol/animal, 1.5 h, corrected for extraction efficiency | blood concentration | ~1200 nM |
| COCCOCCOCCOCCOCCOCCOCCNC(=O)CCC1(CCC(=O)NCCOCCOCCOCCOCCOCCOCCOC)c2ccccc2-c2ccc(-c3sc(-c4c5c(c(-c6sc(-c7ccc8c(c7)C(CCC(=O)NCCOCCOCCOCCOCCOCCOCCOC)(CCC(=O)NCCOCCOCCOCCOCCOCCOCCOC)c7ccccc7-8)c7c6OCCO7)c6nsnc46)N=S=N5)c4c3OCCO4)cc21 | NIR-II fluorescence | KM mice, female, whole blood | intravenous, 15 mg/kg | blood half-life | ~56 min |
| CCCC[C@@H]1NC(=O)[C@@H](NC(=O)[C@H](CCC(=O)O)NC(=O)CNC(=O)CN2CCN(CC(=O)O)CCN(CC(=O)O)CCN(CC(=O)O)CC2)CCCCNC(=O)C[C@@H](C(N)=O)NC(=O)[C@H](C(C)C)NC(=O)[C@@H]2CCCN2C(=O)[C@H](CCCNC(=N)N)NC(=O)CNC(=O)[C@H](Cc2c[nH]c3ccccc23)NC(=O)[C@H](CCCNC(=N)N)NC(=O)[C@@H](Cc2ccccc2)NC(=O)[C@H](Cc2c[nH]cn2)NC(=O)[C@H](CCC(=O)O)NC1=O [gallium-67 labelled] |  | C57 mice, B16/F1 melanoma, blood | 0.5 h | blood uptake | 1.22 ± 0.59 %ID/g |

For quick reference, copied from above:
| Compound | test | test system | conditions | quantity | value |
| --- | --- | --- | --- | --- | --- |
| O=C([O][Ti+2][O]C(=O)c1ccc(P(c2ccccc2)c2ccccc2)cc1)c1ccc(P(c2ccccc2)c2ccccc2)cc1.[Cl][Au].[Cl][Au].c1cc[cH-]c1.c1cc[cH-]c1 | ICP-MS, measured: gold | NOD.CB17-Prkdc scid/J mice, blood | 7.5 mg/kg, 24 h after first dose | blood concentration | 5.5 µg/mL |
